Measurements from different studies.
Each line is one published result; not all experiments were run side by side. ± marks the error that the study gave. Converted amounts (≈) assume the structure as drawn.

Structure (SMILES)	test	test system	conditions	endpoint	result
CC[C@H](C)[C@H](NC(=O)[C@H](CCC(=O)O)NC(=O)[C@H](CCC(=O)O)NC(=O)[C@H](Cc1ccccc1)NC(=O)[C@H](CC(=O)O)NC(=O)CNC(=O)[C@H](CC(N)=O)NC(=O)CNC(=O)CNC(=O)CNC(=O)CNC(=O)[C@@H]1CCCN1C(=O)[C@H](CCCNC(=N)N)NC(=O)[C@@H]1CCCN1C(=O)[C@H](N)Cc1ccccc1)C(=O)N1CCC[C@H]1C(=O)N[C@@H](CCC(=O)O)C(=O)N[C@@H](CCC(=O)O)C(=O)N[C@@H](Cc1ccc(O)cc1)C(=O)N[C@@H](CC(C)C)C(=O)O	–	healthy Chinese male volunteers, plasma	intravenous, 0.5 mg/kg	AUC(0-t)	1480 ± 278 ng·h/mL
COC(=O)C[C@](O)(CCCC(C)(C)OC(C)=O)C(=O)O[C@@H]1C(OC)=C[C@]23CCCN2CCc2cc4c(cc2[C@H]13)OCO4	–	CD1 mouse, bone marrow	oral, 1 mg/kg, 8 h, below quantification limit 1.00 ng/mL	tissue concentration	not detected
Cc1cc(Nc2nc(C[C@@]3(C(=O)O)CCN(Cc4cccc(Cl)c4F)[C@H](C)C3)cc(C)c2F)n[nH]1	–	beagle dog, both sexes, plasma	intravenous, 1 mg/kg	clearance	3.96 mL/min/kg
CC[C@H](C)[C@H](NC(=O)[C@H](CC(=O)O)NC(=O)[C@H](CO)NC(=O)[C@H](CCC(N)=O)NC(=O)[C@H](C)NC(=O)[C@H](CC(=O)O)NC(=O)[C@H](CCC(=O)O)NC(=O)[C@H](Cc1c[nH]cn1)NC(=O)[C@H](Cc1ccc(O)cc1)NC(=O)[C@H](C)NC(=O)[C@H](CC(=O)O)NC(=O)[C@H](CCC(=O)O)NC(=O)[C@H](Cc1c[nH]cn1)NC(=O)[C@H](Cc1ccc(O)cc1)NC(=O)[C@H](C)NC(=O)[C@H](CC(=O)O)NC(=O)[C@H](CCC(=O)O)NC(=O)[C@H](Cc1c[nH]cn1)NC(=O)[C@H](Cc1ccc(O)cc1)NC(=O)[C@H](C)NC(=O)[C@H](CC(=O)O)NC(=O)[C@H](CCC(=O)O)NC(=O)[C@H](Cc1c[nH]cn1)NC(=O)[C@H](Cc1ccc(O)cc1)NC(=O)[C@H](C)NC(=O)[C@H](CC(=O)O)NC(=O)[C@H](CCC(=O)O)NC(=O)[C@H](Cc1c[nH]cn1)NC(=O)[C@@H](N)Cc1ccc(O)cc1)C(=O)N[C@H](C(=O)N[C@@H](C)C(=O)N[C@@H](Cc1c[nH]cn1)C(=O)N[C@@H](CC(C)C)C(=O)N[C@@H](CC(C)C)C(=O)O)C(C)C	–	normal mouse, blood	dose not given	MO share of white cells	3.8 ± 0.5%
CC[C@H](C)C(=O)N1CCC(NC(=O)Nc2ccc(OC(F)(F)F)c(F)c2)CC1	–	healthy volunteers	oral, 24 mg single dose	subjects with headache TEAE	16.7%
CCN(CC)CCOc1ccc(-c2nnn(Cc3ccc(OC)cc3)c2N)cc1	–	Sprague-Dawley rat, male	oral, 20 mg/kg	oral bioavailability	54.9%
COc1c(C[C@@H](C)O)c2c3c(C[C@@H](C)O)c(OC)c(=O)c4c(O)cc5c(c6c(cc(O)c(c1=O)c62)OCO5)c43	–	–	at 670 nm	molar absorption coefficient	120 M⁻¹ cm⁻¹
CC[C@@H]1C[C@]1(NC(=O)[C@@H]1C[C@@]2(CN1C(=O)[C@@H](NC(=O)[C@@H](NC(=O)[C@@H]1CCCCN1C(C)C)C1CCCCC1)C(C)(C)C)C(C)(C)C21CCC1)C(=O)NS(=O)(=O)N1CCCC1	item: Pain	human	oral, 50 mg, added: ritonavir 100 mg	subjects with adverse event	0%
Cc1cc(-c2ccc3ccccc3c2)nnc1NCCN1CCN(C)CC1	–	rat	oral, dose not given	half-life	5.82 h
CC(=CCC(O)C(C)=Cc1csc(C)n1)CC=CC(C)C(O)C(C)C(=O)C(C)(C)C(O)CC(=O)O (centres unmarked)	–	human, plasma	intravenous infusion, 11.3 mg/m2 KOS-1584, 3 h infusion, cycle 1	AUC	204 ± 88.7 ng·h/mL
O=c1oc2cc(O)ccc2c2ccc(O)cc12	potentiometric titration	water, extrapolated from methanol/water	25 °C	pKa1	8.34
CCN(Cc1ccccc1)C(=O)CCc1nc(CN2CCN(C(=O)Cc3ccc(OC)c(OC)c3)CC2)no1	–	rat, kidney	intravenous, 1 mg/kg, 2 h, single dose	concentration	< 1.8 ng/g
CSCC[C@H](N)C(=O)N[C@@H](Cc1ccc(O)cc1)C(=O)N[C@@H](CCCNC(=N)N)C(=O)N[C@@H](Cc1ccccc1)C(=O)N[C@@H](C)C(=O)N[C@@H](C)C(=O)N[C@@H](CO)C(=O)N[C@@H](CC(C)C)C(=O)N[C@@H](C)C(=O)N[C@@H](CO)C(=O)N[C@@H](CCCCN)C(=O)N[C@@H](C)C(=O)N[C@@H](CCCNC(=N)N)C(=O)N[C@H](C(=O)N[C@@H](C)C(N)=O)C(C)C	–	water	0.167 min	thermodynamic solubility	28.7 mM (≈ 47.1 mg/mL)
CCNc1cc2[o+]c3cc(NCC)c(C)cc3c(-c3ccccc3C(=O)OCCOCC[18F])c2cc1C	–	rat, kidney	15 min	tissue uptake	10.2 ± 3.7 %ID/g
CCCCCCCCCCCCC(=O)O.O=C1CCCC2C3CCCN4CCCC(CN12)C34 (centres unmarked)	electrical conductivity	water	313.15 K	standard entropy of aggregation	111 J/(mol·K)
[11CH3]Oc1ccc(C(=O)Nc2cc(-c3ccc(I)cc3)no2)cc1	–	mouse, blood	intravenous, 20 min	parent compound fraction	31 ± 11%
CC(C)[C@H](NC(=O)CNC(=O)[C@H](CCC(N)=O)NC(=O)[C@H](C)N)C(=O)O	–	human	10 mg/kg single dose	subjects with moderate adverse events	0%
CSCC[C@@H]1NC(=O)[C@@H]2CSSC[C@H](NC(=O)[C@H](CO)NC(=O)[C@H](C)N)C(=O)N[C@@H](CCCNC(=N)N)C(=O)N[C@@H]([C@@H](C)O)C(=O)N3CCC[C@H]3C(=O)N[C@@H](CCCCN)C(=O)N[C@@H](CC(=O)O)C(=O)N[C@H]3CSSC[C@H](NC(=O)[C@H](CCCCN)NC(=O)[C@H](CCCNC(=N)N)NC(=O)[C@H](CC(N)=O)NC1=O)C(=O)N[C@@H](CCCCN)C(=O)N[C@H]1CSSC[C@H](NC(=O)[C@@H]4CCCN4C(=O)[C@H](CC(=O)O)NC(=O)[C@H](C)NC3=O)C(=O)N[C@@H](C)C(=O)N[C@@H](CCCCN)C(=O)N[C@@H](CCC(=O)O)C(=O)N[C@@H]([C@@H](C)O)C(=O)NCC(=O)N[C@@H](CSSC[C@@H](C(N)=O)NC(=O)[C@H](CCCNC(=N)N)NC(=O)[C@H](CC(N)=O)NC1=O)C(=O)N1CCC[C@H]1C(=O)N[C@@H](Cc1ccc(O)cc1)C(=O)NCC(=O)N[C@@H](CCCCN)C(=O)N2	–	DA rat pristane-induced arthritis, serum	subcutaneous, 0.1 mg/kg once weekly, 21 days	Triglycerides	54.2 mg/dL
Cc1ccc2c(n1)c(-c1cccc(S(C)(=O)=O)c1)c(C)n2C/C(F)=C/CN	–	healthy male subjects, plasma	oral capsule, dose not given, single ascending dose	Tmax	3 h
CN(C)C(CNC(=O)Nc1cc(C(F)(F)F)ccc1N1CCOCC1)c1ccncc1 (centres unmarked)	–	mouse, serum	intraperitoneal, 240 mg/kg single dose	serum calcium	8.6 mg/dL
C/C(=N\OCCCN1CCCCC1)c1ccc(C(F)(F)F)cc1	–	C57BL/6 mouse	intravenous, 5 mg/kg	clearance	108 ± 17.8 mL/min/kg
C[C@]12CC[C@H](OCC[18F])C[C@H]1CC[C@@H]1[C@@H]2CC[C@]2(C)[C@@H](c3ccc(=O)oc3)CC[C@]12O	radio-HPLC	mouse serum	6 h, 36 °C	radiochemical purity	> 95%
CC[C@H](C)[C@@H]1NC(=O)[C@H](CCCCN)NC(=O)[C@H](CCCCN)NC(=O)[C@H](Cc2ccc(O)cc2)NC(=O)[C@H](CC(C)C)NC(=O)[C@@H]2CCCN2C(=O)[C@H](C)NC(=O)CNC(=O)CNC(=O)[C@H](CO)NC(=O)CNC(=O)CNC(=O)[C@H](CO)NC(=O)[C@H](CCC(=O)O)NC(=O)[C@H](CC(C)C)NC(=O)[C@H](CC(C)C)NC(=O)[C@H](CCCCN)NC(=O)[C@H](CCCCN)NC(=O)[C@H]([C@@H](C)CC)NC(=O)[C@H]([C@@H](C)CC)NC(=O)[C@H](CCCCN)NC(=O)[C@H](CCCCN)NC(=O)[C@H](Cc2ccc(O)cc2)NC(=O)[C@H](CC(C)C)NC(=O)[C@@H]2CCCN2C(=O)[C@H](C)NC(=O)CNC(=O)[C@@H](NC(=O)CN)CSSC[C@@H](C(=O)N[C@@H](CCC(=O)O)C(=O)N[C@@H](CO)C(=O)O)NC(=O)[C@H](CC(C)C)NC(=O)[C@H](CCCCN)NC(=O)[C@H](CCCCN)NC(=O)[C@H]([C@@H](C)CC)NC1=O	hemolysis	uninfected human erythrocytes	1 h	HC10	> 128 µM

Excerpt of the above:
Structure (SMILES)	test	test system	conditions	endpoint	result
CC[C@H](C)[C@H](NC(=O)[C@H](CC(=O)O)NC(=O)[C@H](CO)NC(=O)[C@H](CCC(N)=O)NC(=O)[C@H](C)NC(=O)[C@H](CC(=O)O)NC(=O)[C@H](CCC(=O)O)NC(=O)[C@H](Cc1c[nH]cn1)NC(=O)[C@H](Cc1ccc(O)cc1)NC(=O)[C@H](C)NC(=O)[C@H](CC(=O)O)NC(=O)[C@H](CCC(=O)O)NC(=O)[C@H](Cc1c[nH]cn1)NC(=O)[C@H](Cc1ccc(O)cc1)NC(=O)[C@H](C)NC(=O)[C@H](CC(=O)O)NC(=O)[C@H](CCC(=O)O)NC(=O)[C@H](Cc1c[nH]cn1)NC(=O)[C@H](Cc1ccc(O)cc1)NC(=O)[C@H](C)NC(=O)[C@H](CC(=O)O)NC(=O)[C@H](CCC(=O)O)NC(=O)[C@H](Cc1c[nH]cn1)NC(=O)[C@H](Cc1ccc(O)cc1)NC(=O)[C@H](C)NC(=O)[C@H](CC(=O)O)NC(=O)[C@H](CCC(=O)O)NC(=O)[C@H](Cc1c[nH]cn1)NC(=O)[C@@H](N)Cc1ccc(O)cc1)C(=O)N[C@H](C(=O)N[C@@H](C)C(=O)N[C@@H](Cc1c[nH]cn1)C(=O)N[C@@H](CC(C)C)C(=O)N[C@@H](CC(C)C)C(=O)O)C(C)C	–	normal mouse, blood	dose not given	MO share of white cells	3.8 ± 0.5%
CC[C@H](C)C(=O)N1CCC(NC(=O)Nc2ccc(OC(F)(F)F)c(F)c2)CC1	–	healthy volunteers	oral, 24 mg single dose	subjects with headache TEAE	16.7%
